Measurements of several laboratories.
Numbered parts are unrelated; each lists some results of a single study. Several values in a cell are separate wells, animals, samples, runs or records.
Chain of UniProt Q7KZI7 (whole entry, looked up): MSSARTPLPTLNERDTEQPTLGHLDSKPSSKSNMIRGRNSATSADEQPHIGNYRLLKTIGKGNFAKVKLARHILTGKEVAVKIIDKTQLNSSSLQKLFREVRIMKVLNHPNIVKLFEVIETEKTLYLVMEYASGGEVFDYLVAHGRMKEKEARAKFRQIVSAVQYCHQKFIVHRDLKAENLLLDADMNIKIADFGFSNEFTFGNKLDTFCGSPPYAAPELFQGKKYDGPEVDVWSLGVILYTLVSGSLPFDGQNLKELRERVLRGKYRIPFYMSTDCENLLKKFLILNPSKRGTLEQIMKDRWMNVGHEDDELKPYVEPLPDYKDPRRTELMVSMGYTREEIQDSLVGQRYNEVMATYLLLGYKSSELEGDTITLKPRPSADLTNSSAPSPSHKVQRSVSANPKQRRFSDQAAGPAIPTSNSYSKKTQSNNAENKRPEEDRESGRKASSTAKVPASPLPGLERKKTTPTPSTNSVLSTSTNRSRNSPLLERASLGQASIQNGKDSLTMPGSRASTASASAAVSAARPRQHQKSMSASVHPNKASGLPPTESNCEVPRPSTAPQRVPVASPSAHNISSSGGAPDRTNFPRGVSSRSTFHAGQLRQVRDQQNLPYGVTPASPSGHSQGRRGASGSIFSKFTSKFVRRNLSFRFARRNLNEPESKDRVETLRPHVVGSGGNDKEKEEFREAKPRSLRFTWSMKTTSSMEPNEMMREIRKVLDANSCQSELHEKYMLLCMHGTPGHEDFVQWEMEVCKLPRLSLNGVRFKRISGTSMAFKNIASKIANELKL
Chain of UniProt Q8IY84 (whole entry, looked up): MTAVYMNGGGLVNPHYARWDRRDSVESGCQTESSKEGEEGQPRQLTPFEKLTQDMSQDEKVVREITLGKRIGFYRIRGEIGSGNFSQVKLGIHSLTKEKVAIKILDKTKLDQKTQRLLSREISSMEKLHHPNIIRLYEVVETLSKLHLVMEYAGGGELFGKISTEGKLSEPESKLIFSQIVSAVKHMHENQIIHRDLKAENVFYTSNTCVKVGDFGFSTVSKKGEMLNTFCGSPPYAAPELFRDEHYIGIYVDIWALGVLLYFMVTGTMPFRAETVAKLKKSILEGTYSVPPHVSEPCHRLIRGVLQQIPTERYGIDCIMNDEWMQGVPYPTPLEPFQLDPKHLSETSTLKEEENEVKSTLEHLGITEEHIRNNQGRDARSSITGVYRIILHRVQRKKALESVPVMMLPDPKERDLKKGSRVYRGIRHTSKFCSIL
Chain of UniProt Q9P1W9 (whole entry, looked up): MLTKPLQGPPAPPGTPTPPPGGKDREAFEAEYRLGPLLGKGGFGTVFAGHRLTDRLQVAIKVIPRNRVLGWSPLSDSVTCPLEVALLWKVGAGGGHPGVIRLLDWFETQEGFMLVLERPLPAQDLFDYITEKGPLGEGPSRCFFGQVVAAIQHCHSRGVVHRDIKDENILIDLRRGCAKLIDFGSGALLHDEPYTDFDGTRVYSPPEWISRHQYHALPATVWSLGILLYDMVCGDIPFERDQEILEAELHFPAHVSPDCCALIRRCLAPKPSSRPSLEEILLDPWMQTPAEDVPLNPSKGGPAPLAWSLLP
Chain of UniProt Q15759 (whole entry, looked up): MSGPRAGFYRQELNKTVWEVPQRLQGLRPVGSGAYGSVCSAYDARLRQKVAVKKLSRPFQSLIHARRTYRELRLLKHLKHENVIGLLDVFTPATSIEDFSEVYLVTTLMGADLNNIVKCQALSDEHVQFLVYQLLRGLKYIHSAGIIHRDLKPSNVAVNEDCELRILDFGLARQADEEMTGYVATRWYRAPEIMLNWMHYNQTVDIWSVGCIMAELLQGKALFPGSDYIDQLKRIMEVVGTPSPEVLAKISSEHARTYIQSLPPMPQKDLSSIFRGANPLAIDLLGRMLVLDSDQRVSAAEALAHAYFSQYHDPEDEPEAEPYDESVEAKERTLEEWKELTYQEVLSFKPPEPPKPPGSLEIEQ
Chain of UniProt P51617 (whole entry, looked up): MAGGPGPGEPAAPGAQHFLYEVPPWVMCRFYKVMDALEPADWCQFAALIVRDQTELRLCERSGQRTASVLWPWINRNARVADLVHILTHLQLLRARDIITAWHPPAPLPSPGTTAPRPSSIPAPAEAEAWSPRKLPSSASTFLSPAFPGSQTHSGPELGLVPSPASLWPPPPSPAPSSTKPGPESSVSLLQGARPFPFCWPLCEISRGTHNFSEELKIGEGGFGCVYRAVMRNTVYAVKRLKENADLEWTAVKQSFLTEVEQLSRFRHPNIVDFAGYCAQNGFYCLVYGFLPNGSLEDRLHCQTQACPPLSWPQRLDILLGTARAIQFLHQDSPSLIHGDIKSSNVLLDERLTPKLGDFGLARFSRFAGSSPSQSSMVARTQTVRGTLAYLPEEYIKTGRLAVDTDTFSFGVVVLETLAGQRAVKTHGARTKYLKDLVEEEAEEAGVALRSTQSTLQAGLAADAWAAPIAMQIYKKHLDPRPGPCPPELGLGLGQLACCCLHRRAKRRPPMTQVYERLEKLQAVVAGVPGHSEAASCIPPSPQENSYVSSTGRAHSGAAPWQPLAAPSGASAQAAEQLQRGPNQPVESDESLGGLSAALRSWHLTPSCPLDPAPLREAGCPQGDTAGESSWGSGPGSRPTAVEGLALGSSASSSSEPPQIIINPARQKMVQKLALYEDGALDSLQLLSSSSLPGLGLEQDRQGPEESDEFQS
Chain of UniProt O43293 (whole entry, looked up): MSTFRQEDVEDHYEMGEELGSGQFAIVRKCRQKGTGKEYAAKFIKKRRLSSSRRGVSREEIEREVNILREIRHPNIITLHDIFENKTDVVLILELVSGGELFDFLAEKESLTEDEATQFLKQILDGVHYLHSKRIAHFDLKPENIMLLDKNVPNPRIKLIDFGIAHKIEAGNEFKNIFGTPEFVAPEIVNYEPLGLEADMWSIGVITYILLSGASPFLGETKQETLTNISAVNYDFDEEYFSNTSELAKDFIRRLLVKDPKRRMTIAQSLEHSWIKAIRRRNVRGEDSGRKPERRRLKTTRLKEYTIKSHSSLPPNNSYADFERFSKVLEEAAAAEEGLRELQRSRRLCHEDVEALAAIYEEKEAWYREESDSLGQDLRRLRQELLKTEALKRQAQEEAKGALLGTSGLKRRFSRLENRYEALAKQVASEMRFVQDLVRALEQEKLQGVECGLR

Block 1 — read-out: enzyme activity; action: inhibitor; tested at: 10 µM; measurement: inhibition
Target: Calcium/calmodulin-dependent protein kinase type II subunit alpha (CAMK2A, Homo sapiens, UniProt Q9UQM7)
Chain of UniProt Q9UQM7 (whole entry, looked up): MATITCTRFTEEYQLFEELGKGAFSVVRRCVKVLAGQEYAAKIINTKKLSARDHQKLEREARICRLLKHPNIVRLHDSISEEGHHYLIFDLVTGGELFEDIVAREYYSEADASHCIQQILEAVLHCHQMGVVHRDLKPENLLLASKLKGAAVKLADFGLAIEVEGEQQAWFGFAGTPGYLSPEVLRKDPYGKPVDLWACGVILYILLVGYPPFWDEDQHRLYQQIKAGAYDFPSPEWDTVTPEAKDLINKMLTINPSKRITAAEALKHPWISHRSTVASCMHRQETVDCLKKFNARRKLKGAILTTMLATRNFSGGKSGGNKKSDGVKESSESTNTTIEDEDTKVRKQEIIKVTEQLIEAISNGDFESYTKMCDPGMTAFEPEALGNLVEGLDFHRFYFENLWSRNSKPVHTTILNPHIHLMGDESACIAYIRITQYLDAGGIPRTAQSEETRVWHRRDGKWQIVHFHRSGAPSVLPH
CCC1(c2ccccc2)NC(=O)N(C)C1=O (centres unmarked): -7%
CC(C)=CCC[C@](C)(O[C@@H]1O[C@H](CO)[C@@H](O)[C@H](O)[C@H]1O)[C@H]1CC[C@]2(C)[C@@H]1[C@H](O)C[C@@H]1[C@@]3(C)CC[C@H](O)C(C)(C)[C@@H]3[C@@H](O[C@@H]3O[C@H](CO)[C@@H](O)[C@H](O)[C@H]3O[C@@H]3O[C@@H](C)[C@H](O)[C@@H](O)[C@H]3O)C[C@]12C: -16%
COc1ccc(-c2oc3c4c(cc(O)c3c(=O)c2O)OC(C)(C)CC4)cc1: -13%
CCCCN(CCCC)CCC(O)c1cc2c(Cl)cc(Cl)cc2c2cc(C(F)(F)F)ccc12 (centres unmarked): -1%
CC1(C)O[C@H]2CC(=O)OC[C@]23[C@H]2CC[C@@]4(C)[C@H](c5ccoc5)OC(=O)[C@H]5O[C@]54[C@]2(C)C(=O)C[C@@H]13: -67%
O=C(O)C[C@H](O)C[C@H](O)/C=C/c1c(C2CC2)nc2ccccc2c1-c1ccc(F)cc1: 5%
COc1ccc([C@@H]2CC(=O)c3c(O)cc(O[C@@H]4O[C@H](CO)[C@@H](O)[C@H](O)[C@H]4O)cc3O2)cc1: -17%
COc1ccc([C@H]2OC[C@H]3[C@@H]2CO[C@@H]3c2ccc(OC)c(OC)c2)cc1OC: -0.16% and -0.12%
CCCC[C@H](C)C[C@H](O)/C=C/[C@H]1[C@H](O)CC(=O)[C@@H]1CCCC/C=C/C(=O)O: -6%
COc1ccc(C(C)=O)c(O)c1O: 1%
CC(C)c1cc2c(cc1S(=O)(=O)O)[C@@]1(C)CCC[C@@](C)(C(=O)O)[C@@H]1CC2: 2%

Block 2 — read-out: cell-free assay; method: competition with immobilised ligand; tested at: 1 µM; measurement: remaining binding
Compound: O=C(NCc1ncc(C(F)(F)F)cc1Cl)c1ccc2c(c1)C1(CCS(=O)(=O)CC1)[C@H](C1CC1)N2S(=O)(=O)c1ccc(F)cc1
Proto-oncogene tyrosine-protein kinase receptor Ret (RET, Homo sapiens, UniProt P07949, V804M): 100%
Serine/threonine-protein kinase pim-2 (PIM2, Homo sapiens, UniProt Q9P1W9): 94%
Serine/threonine-protein kinase MARK2 (MARK2, Homo sapiens, UniProt Q7KZI7): 100%
Mitogen-activated protein kinase 11 (MAPK11, Homo sapiens, UniProt Q15759): 100%
Receptor-type tyrosine-protein kinase FLT3 (FLT3, Homo sapiens, UniProt P36888): 100%
Tyrosine-protein kinase ABL2 (ABL2, Homo sapiens, UniProt P42684): 100%
Death-associated protein kinase 3 (DAPK3, Homo sapiens, UniProt O43293): 90%
Epidermal growth factor receptor (EGFR, Homo sapiens, UniProt P00533, G719C): 78%
Cyclin-dependent kinase 17 (CDK17, Homo sapiens, UniProt Q00537): 100%
Serine/threonine-protein kinase NIM1 (NIM1K, Homo sapiens, UniProt Q8IY84): 83%
Dual specificity tyrosine-phosphorylation-regulated kinase 2 (DYRK2, Homo sapiens, UniProt Q92630): 95%
Serine/threonine-protein kinase PLK3 (PLK3, Homo sapiens, UniProt Q9H4B4): 92%
Mast/stem cell growth factor receptor Kit (KIT, Homo sapiens, UniProt P10721, V559D): 100%
Interleukin-1 receptor-associated kinase 1 (IRAK1, Homo sapiens, UniProt P51617): 82%

Block 3 — Compound: C=CCc1ccc(O)c(-c2ccc(O)c(CC=C)c2)c1; read-out: chloride current; measurement: normalized current
ANO1: Anoctamin-1 (ANO1, Homo sapiens, UniProt Q5XXA6)
Chain of UniProt Q5XXA6 (whole entry, unmodified, looked up): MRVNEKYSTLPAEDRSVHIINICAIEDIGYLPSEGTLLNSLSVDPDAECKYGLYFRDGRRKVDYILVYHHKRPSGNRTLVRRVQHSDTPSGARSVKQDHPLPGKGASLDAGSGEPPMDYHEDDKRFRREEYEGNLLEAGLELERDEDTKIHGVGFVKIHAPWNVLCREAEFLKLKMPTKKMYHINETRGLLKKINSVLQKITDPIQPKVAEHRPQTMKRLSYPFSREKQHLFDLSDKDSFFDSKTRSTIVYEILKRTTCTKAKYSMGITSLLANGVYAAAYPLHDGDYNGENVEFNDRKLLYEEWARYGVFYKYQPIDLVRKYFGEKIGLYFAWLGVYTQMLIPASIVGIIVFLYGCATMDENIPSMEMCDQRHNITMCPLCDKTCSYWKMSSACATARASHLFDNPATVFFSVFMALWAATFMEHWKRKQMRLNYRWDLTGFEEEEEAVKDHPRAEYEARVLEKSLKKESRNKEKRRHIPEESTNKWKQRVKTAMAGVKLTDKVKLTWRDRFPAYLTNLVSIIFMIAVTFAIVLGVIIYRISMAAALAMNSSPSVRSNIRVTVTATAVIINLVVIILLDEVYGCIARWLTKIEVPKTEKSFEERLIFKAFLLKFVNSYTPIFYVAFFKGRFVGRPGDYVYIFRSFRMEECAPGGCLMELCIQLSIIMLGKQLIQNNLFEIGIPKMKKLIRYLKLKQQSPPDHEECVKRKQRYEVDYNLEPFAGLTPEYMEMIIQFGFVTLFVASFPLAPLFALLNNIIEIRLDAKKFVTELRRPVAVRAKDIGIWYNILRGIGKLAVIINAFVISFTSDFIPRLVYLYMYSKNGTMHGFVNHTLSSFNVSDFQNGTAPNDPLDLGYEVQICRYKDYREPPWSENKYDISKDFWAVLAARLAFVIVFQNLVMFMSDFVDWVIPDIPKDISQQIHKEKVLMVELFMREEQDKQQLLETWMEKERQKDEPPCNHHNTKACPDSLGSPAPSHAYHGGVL
Anoctamin-1 (ANO1, Homo sapiens, UniProt Q5XXA6, del476-501/E649A/R541A); inside-out patch clamp; 10 µM, membrane voltage 40 mV: 0.223
Anoctamin-1 (ANO1, Homo sapiens, UniProt Q5XXA6, del476-501); whole-cell voltage clamp; 3 µM, wild type, I-V at 80 mV, together with: 4 µM Ca2+: 0.628
ANO1; inside-out patch clamp; 10 µM, membrane voltage 40 mV: 0.308
Anoctamin-1 (ANO1, Homo sapiens, UniProt Q5XXA6, del476-501/E659A/K629A); inside-out patch clamp; 10 µM, membrane voltage 80 mV: 0.654
TMEM16A (human) K603A/E623A; inside-out patch clamp; 10 µM, membrane voltage -60 mV: -0.259
ANO1; inside-out patch clamp; 10 µM, membrane voltage 20 mV: 0.151

Block 4 — species: human; medium: microsomes or S9; tested at: 2 µM; time: 0.5 h; measurement: remaining compound
O=C(NC1=C(C(=O)c2ccccc2)N(Cc2ccccc2)S(=O)(=O)c2ccccc21)c1ccccc1: 3.76%
COCc1cc(C)nc2sc(C3=NC(C)(C)Cc4cc(OC)c(OC)cc43)c(N)c12: 1.43%
CCCNC(=O)C1CN(CC(=O)Nc2ccccc2C(=O)NCc2ccccc2)c2ccccc2O1 (centres unmarked): 2.98%
Cc1ccc(NC(=O)Cn2nc3c(N4CC(C)CC(C)C4)nccn3c2=O)c(Cl)c1 (centres unmarked): 6.4%
Brc1ccc2c(c1)C1CC(c3ccco3)=NN1C(c1ccncc1)O2 (centres unmarked): 52.4%
Cc1ccccc1Cn1c(=O)n(Cc2ccc(F)cc2)c(=O)c2nccnc21: 108%
O=C(Nc1nc2ccc(F)cn2n1)NC1C2CCOC2C12CCC2 (centres unmarked): 61.7%

Some of these lines once more (block 1):
O=C(O)C[C@H](O)C[C@H](O)/C=C/c1c(C2CC2)nc2ccccc2c1-c1ccc(F)cc1: 5%
CC(C)=CCC[C@](C)(O[C@@H]1O[C@H](CO)[C@@H](O)[C@H](O)[C@H]1O)[C@H]1CC[C@]2(C)[C@@H]1[C@H](O)C[C@@H]1[C@@]3(C)CC[C@H](O)C(C)(C)[C@@H]3[C@@H](O[C@@H]3O[C@H](CO)[C@@H](O)[C@H](O)[C@H]3O[C@@H]3O[C@@H](C)[C@H](O)[C@@H](O)[C@H]3O)C[C@]12C: -16%
CC1(C)O[C@H]2CC(=O)OC[C@]23[C@H]2CC[C@@]4(C)[C@H](c5ccoc5)OC(=O)[C@H]5O[C@]54[C@]2(C)C(=O)C[C@@H]13: -67%
CCCCN(CCCC)CCC(O)c1cc2c(Cl)cc(Cl)cc2c2cc(C(F)(F)F)ccc12 (centres unmarked): -1%
CC(C)c1cc2c(cc1S(=O)(=O)O)[C@@]1(C)CCC[C@@](C)(C(=O)O)[C@@H]1CC2: 2%
COc1ccc(-c2oc3c4c(cc(O)c3c(=O)c2O)OC(C)(C)CC4)cc1: -13%
